Experimental data from different studies.
A part holds a random share of what one study measured. Substitutions count along the parent as printed.

Study 1 — method: Spec-seq; molecule type: double-stranded DNA, one strand shown; sample: in vitro; concentration: not given; setting: whole probe, mean of replicates; relative to: not given; reading: lower = stronger binding; quantity: relative binding energy; all sequences stand within: GAGTCGTCTCGTCAGCAC … TCCGTAGAGCACTCAGGTC
Target: POU domain, class 5, transcription factor 1, POU domain (Pou5f1, Mus musculus, UniProt P20263, residues 131-289)
Chain of UniProt P20263 (131-289, looked up): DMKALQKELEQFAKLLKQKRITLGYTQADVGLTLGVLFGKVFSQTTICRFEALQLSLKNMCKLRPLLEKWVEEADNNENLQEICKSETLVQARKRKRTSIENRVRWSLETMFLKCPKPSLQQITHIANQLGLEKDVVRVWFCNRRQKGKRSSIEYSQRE
ATGCACC: 0.188 ln ratio
GTGCTAA: -0.262 ln ratio
ATGTCGA: 0.589 ln ratio
ACCCTAA: 0.71 ln ratio
AGCGTAA: 0.637 ln ratio
ACCTTAA: 0.612 ln ratio
ATACGGA: 0.42 ln ratio
ATGGAGA: -0.313 ln ratio

Study 2 — method: protein-binding microarray; molecule type: double-stranded DNA, one strand shown; sample: in vitro; concentration: 2200 nM top; setting: 60-bp whole probe; together with: salmon DNA 0.4 mg/ml; relative to: random background probes; reading: higher = stronger binding; quantity: fitted relative affinity; all sequences stand within: GCCTAGCAC … GTCTTGATTCGCTTGACGCTGCTG
Target: Interferon regulatory factor 7, full length, phosphomimetic (IRF7, Homo sapiens, UniProt Q92985, residues 1-503, S471D/S472D/S475D/S476D/S477D/S483D/S484D/S487D)
Construct (chain): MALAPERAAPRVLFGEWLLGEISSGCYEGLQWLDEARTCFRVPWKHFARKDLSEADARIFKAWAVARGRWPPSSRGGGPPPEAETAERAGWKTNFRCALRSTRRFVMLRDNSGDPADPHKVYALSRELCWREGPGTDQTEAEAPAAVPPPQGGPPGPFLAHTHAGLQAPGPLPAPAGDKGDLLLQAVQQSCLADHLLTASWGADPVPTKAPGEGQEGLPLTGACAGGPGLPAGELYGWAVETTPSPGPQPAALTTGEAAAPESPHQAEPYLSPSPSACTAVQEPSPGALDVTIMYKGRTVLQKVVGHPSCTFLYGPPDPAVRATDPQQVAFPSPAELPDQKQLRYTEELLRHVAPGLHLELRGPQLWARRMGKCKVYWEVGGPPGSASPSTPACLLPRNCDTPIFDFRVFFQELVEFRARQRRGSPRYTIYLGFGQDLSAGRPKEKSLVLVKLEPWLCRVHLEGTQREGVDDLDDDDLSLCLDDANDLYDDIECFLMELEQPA
TTAGATTTCGGGTTTGGATTAGTGCTA: 4.27 z-score
TTAGGACTGGACACTGGATTAGTGCTA: -0.727 z-score
GACGGTTCCGACTTTCGGGACGTGCTA: 3.03 z-score
TTAGGTTTCGGTGCCGGTTAGTGCTAG: 3.05 z-score
TCTCCTACAGGTTCTCTGAGAGTGCTA: 0.592 z-score
TTTGCTCTGTGCATAGGTCTGTGCTAG: 0.542 z-score
TTAGGTCGCCTTTTCCTTTAGTGCTAG: 1.24 z-score
TTAGGTATCCTTGTCCTTTAGTGCTAG: 0.982 z-score
GACGGACTGCTACGGCTGACGTGCTAG: -0.286 z-score

Study 3 — target: CREM, bZIP domain (human); method: DHFR protein complementation; sample: yeast; relative to: wild-type JUN-FOS pair; reading: higher = stronger binding; quantity: binding fitness
Setting: single substitutions, most at no-binding floor
Starting sequence: JUN, bZIP domain (human); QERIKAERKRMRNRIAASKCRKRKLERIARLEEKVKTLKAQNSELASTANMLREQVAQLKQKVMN; partner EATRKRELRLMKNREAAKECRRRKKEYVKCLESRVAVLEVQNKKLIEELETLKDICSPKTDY
S47K: -0.942 natural log
K39P: -1.48 natural log
S43L: -1.42 natural log
M51K: -1.5 natural log
L45W: -1.47 natural log
E32A: -1.53 natural log
A46W: -1.47 natural log
L52Y: -1.51 natural log
T37P: -1.52 natural log
N42K: -1.51 natural log
I28S: -1.54 natural log
M51A: -1.37 natural log
V35K: -1.36 natural log
L59H: -1.37 natural log

Further values, each from its own experiment
PhoQ, residues 284 288 289 292 302 303 SMYGEC  fold induction (PhoP, residues 12 14 15 18 19 LHHSG (Escherichia coli, UniProt P23836); Sort-seq, refers to: YFP reporter; E. coli; PhoQ-PhoP variant library, together with: 10 µM Mg2+; relative to: high Mg2+ state, higher = stronger signaling): 2.12

Repeated from above (study 3):
L45W: -1.47 natural log
E32A: -1.53 natural log
A46W: -1.47 natural log
